Measurements gathered from unrelated publications.
Lines come from different studies, so protocols differ. Numbers after ± are the reported error.

CC[C@H](C)[C@H](NC(=O)[C@H](CC(C)C)NC(=O)[C@@H](NC(=O)[C@H](CCCCN)NC(=O)[C@H](CCCNC(=N)N)NC(=O)[C@H](CCCCN)NC(=O)[C@H](CC(C)C)NC(=O)[C@H](Cc1ccc(O)cc1)NC(=O)[C@@H](NC(=O)[C@@H](NC(=O)[C@H](Cc1ccccc1)NC(=O)CN)C(C)C)C(C)C)[C@@H](C)O)C(=O)N[C@@H](CCCNC(=N)N)C(=O)N[C@@H](CC(C)C)C(=O)N[C@@H](CC(C)C)C(=O)N[C@@H](Cc1ccccc1)C(=O)N[C@H](C(=O)N[C@@H](CC(N)=O)C(=O)N[C@@H](CCCCN)C(=O)N[C@@H](CCCCN)C(=O)N[C@H](C(=O)N[C@H](C(=O)N[C@H](C(=O)N[C@@H](CCC(=O)O)C(=O)N[C@@H](CCCCN)C(=O)N[C@@H](CC(C)C)C(=O)N[C@@H](CCCNC(=N)N)C(=O)N[C@@H](CS)C(=O)N[C@H](C(=O)N[C@@H](CCCNC(=N)N)C(=O)N1CCC[C@H]1C(=O)N[C@@H](CO)C(=O)N[C@@H](CCCNC(=N)N)C(=O)N1CCC[C@H]1C(=O)N1CCC[C@H]1C(=O)N[C@@H](CCCNC(=N)N)C(=O)NCC(=O)N[C@@H](Cc1ccccc1)C(=O)O)C(C)C)[C@@H](C)CC)[C@@H](C)O)[C@@H](C)O)[C@@H](C)O — CC50 (THP-1, PMA-differentiated; cell viability, MTT): 72.8 µM
c1ccc2oc(-c3nn4c(Cn5cnc6ccccc65)nnc4s3)cc2c1 — CC50 (HEp-2; cytotoxicity): > 100 µM
CC[C@H](C)[C@H](NC(=O)[C@H](Cc1c[nH]cn1)NC(=O)[C@@H](NC(=O)[C@@H](NC(=O)[C@H](CC(C)C)NC(=O)[C@H](CCCCN)NC(=O)[C@H](CCCCN)NC(=O)[C@@H]1CCCN1C(=O)[C@H](CC(C)C)NC(=O)[C@H](CC(C)C)NC(=O)[C@H](CCC(N)=O)NC(=O)[C@@H](NC(=O)CNC(=O)[C@H](CC(C)C)NC(=O)[C@H](CCC(N)=O)NC(=O)[C@H](CC(C)C)NC(=O)[C@H](CCCNC(=N)N)NC(=O)[C@H](CC(N)=O)NC(=O)[C@H](CCCCN)NC(=O)[C@H](CC(N)=O)NC(=O)[C@H](CCCNC(=N)N)NC(=O)[C@@H](NC(=O)[C@H](CO)NC(=O)[C@H](Cc1ccccc1)NC(=O)[C@H](CC(C)C)NC(=O)[C@H](Cc1ccccc1)NC(=O)[C@H](C)NC(=O)[C@H](CC(N)=O)NC(=O)[C@H](CC(N)=O)NC(=O)[C@@H](NC(=O)[C@H](CCCNC(=N)N)NC(=O)[C@@H](N)Cc1c[nH]cn1)C(C)C)[C@@H](C)CC)C(C)C)C(C)C)C(C)C)C(=O)N[C@@H](CCCNC(=N)N)C(=O)NCC(=O)N[C@@H](CCCCN)C(=O)N[C@@H](CCC(N)=O)C(=O)N1CCC[C@H]1C(=O)N[C@@H](C)C(=O)N[C@H](C(=O)N[C@@H](Cc1ccccc1)C(=O)O)C(C)C — CC50 (THP-1, PMA-differentiated; cell viability, MTT): 141 µM
CN(C)c1ccc(N(Cc2cc(Cl)cs2)C(=O)Cc2cncc3ccccc23)cc1 — CC50 (Calu-3; 48 h): 53.7 µM
CC[C@H](C)[C@H](NC(=O)[C@H](CCCCN)NC(=O)[C@H](CCCNC(=N)N)NC(=O)[C@H](CCC(N)=O)NC(=O)[C@H](CCCNC(=N)N)NC(=O)CNC(=O)[C@H](Cc1ccccc1)NC(=O)[C@H](CCCNC(=N)N)NC(=O)[C@H](CCCNC(=N)N)NC(=O)[C@H](Cc1ccccc1)NC(=O)[C@H](CC(C)C)NC(=O)[C@@H]1CCCN1C(=O)[C@@H](NC(=O)[C@H](CC(N)=O)NC(=O)[C@@H](NC(=O)[C@@H](NC(=O)[C@H](CO)NC(=O)[C@H](CC(N)=O)NC(=O)[C@H](CCCNC(=N)N)NC(=O)[C@@H]1CCCN1C(=O)[C@@H](NC(=O)[C@@H]1CCCN1C(=O)[C@@H](N)Cc1ccccc1)[C@@H](C)CC)[C@@H](C)O)C(C)C)[C@@H](C)CC)C(=O)NCC(=O)NCC(=O)N[C@@H](CCCNC(=N)N)C(=O)NCC(=O)N[C@@H](CCCNC(=N)N)C(=O)N[C@H](C(=O)N[C@H](C(=O)N[C@@H](CO)C(=O)N1CCC[C@H]1C(=O)N[C@@H](Cc1ccc(O)cc1)C(=O)N[C@@H](CCCNC(=N)N)C(=O)N[C@H](C(=O)N1CCC[C@H]1C(=O)N[C@H](C(=O)N[C@@H](CC(C)C)C(=O)N[C@@H](CCCNC(=N)N)C(=O)N[C@@H](CCCNC(=N)N)C(=O)N[C@@H](Cc1c[nH]cn1)C(=O)N[C@@H](CCCNC(=N)N)C(=O)N[C@@H](Cc1ccc(O)cc1)C(=O)N[C@@H](CO)C(=O)N[C@H](C(=O)N[C@@H](Cc1ccccc1)C(=O)N[C@@H](CCCNC(=N)N)C(=O)O)[C@@H](C)CC)C(C)C)[C@@H](C)O)[C@@H](C)CC)[C@@H](C)CC — CC50 (THP-1, PMA-differentiated; cell viability, MTT): 24.6 µM
O=C(Nc1ccc(S(=O)(=O)N2CCC(Cl)CC2)cc1)c1ccc([N+](=O)[O-])o1 — CC50 (hepatocytes, human, immortalized, Fa2N-4; cytotoxicity; 24 h): 11.4 µM
CC(C)C[C@H](NC(=O)OCc1ccccc1)C(=O)N[C@H](C=O)C[C@@H]1CCCNC1=O — CC50 (Calu-3; cytotoxicity): > 100 µM
COc1cccc(-c2nn3c(Cn4nnc5ccccc54)nnc3s2)c1 — CC50 (HEp-2; cytotoxicity): > 100 µM
CCOCOC[C@H](C[C@H](C)C(=O)NO)NC(=O)c1ccc(Oc2ccccc2)cc1 — CC50 (293T or HeLa; CellTiter-Glo; 72 h): > 10 µM
N#C[C@@]1(n2ccc(N)nc2=O)O[C@H](CO)[C@@H](O)[C@H]1O — CC50 (CEM): 53 ± 34.1 µM
C#C[C@@]1(O)[C@@H](CO)O[C@@H](n2cc(Br)c3c(N)ncnc32)[C@@H]1O — CC50 (Malme-3M; SRB; NCI-60 screen): 82.6 µM
COc1cccc(-c2nn3c(Cn4cnc5ccccc54)nnc3s2)c1 — CC50 (HEp-2; cytotoxicity): 11.1 µM
COc1cc2c(Oc3ccc4[nH]c(C)cc4c3F)ccnc2cc1OCC1(N)CC1 — grade 3 T-wave abnormality (paediatric refractory sarcoma patients; 12 mg): 0%
Cc1ccc(-c2nn3c(Cn4c(-c5ccccn5)nc5ccccc54)nnc3s2)cc1C — CC50 (HEp-2; cytotoxicity): > 100 µM
Nc1ncnc2c1ccn2[C@H]1[C@H](O)[C@H](O)[C@]2(CO)C[C@H]12 — CC50 (monkey cell line; visual): > 100 µM
CC(C)(C)c1ccc(-c2nn3c(Cn4nnc5ccccc54)nnc3s2)cc1 — CC50 (HEp-2; cytotoxicity): 34 µM
CC[C@H](C)[C@H](NC(=O)[C@H](CCSC)NC(=O)[C@H](Cc1c[nH]cn1)NC(=O)[C@@H](NC(=O)[C@H](CC(C)C)NC(=O)[C@H](CO)NC(=O)[C@H](CO)NC(=O)[C@H](CCCCN)NC(=O)[C@H](Cc1ccc(O)cc1)NC(=O)[C@H](CCCCN)NC(=O)[C@H](CC(N)=O)NC(=O)[C@H](CO)NC(=O)[C@H](CCCCN)NC(=O)[C@H](CC(C)C)NC(=O)[C@@H](NC(=O)[C@H](CC(C)C)NC(=O)[C@H](CC(C)C)NC(=O)[C@H](CCSC)NC(=O)[C@H](CCCNC(=N)N)NC(=O)[C@H](CCCCN)NC(=O)[C@H](CCCNC(=N)N)NC(=O)[C@@H](N)Cc1c[nH]c2ccccc12)[C@@H](C)O)C(C)C)C(=O)N[C@@H](CC(C)C)C(=O)NCC(=O)N[C@@H](CC(C)C)C(=O)N[C@@H](CO)C(=O)N[C@@H](CC(C)C)C(=O)N[C@@H](CCC(N)=O)C(=O)N[C@H](C(=O)N[C@@H](CS)C(=O)N[C@@H](CC(C)C)C(=O)N[C@H](C(=O)N[C@@H](CCCCN)C(=O)O)[C@@H](C)O)[C@@H](C)CC — CC50 (THP-1, PMA-differentiated; cell viability, MTT): 265 µM
C[C@H]1CCC/C=C/[C@@H]2C[C@H](O)C[C@H]2[C@H](O)/C=C/C(=O)O1 — CC50 (THP-1 PMA-differentiated macrophages; CellTiter-Glo; 72 h, host cell cytotoxicity): 0.07 µM
Brc1ccccc1-c1nn2c(Cn3cnc4ccccc43)nnc2s1 — CC50 (HEp-2; cytotoxicity): 23.1 µM
CC[C@H](C)[C@H](NC(=O)[C@H](C)NC(=O)[C@H](CCCCN)NC(=O)[C@H](CC(N)=O)NC(=O)[C@@H](NC(=O)[C@H](CCCCN)NC(=O)[C@H](CCCCN)NC(=O)[C@H](CC(C)C)NC(=O)[C@@H](NC(=O)[C@H](CCCCN)NC(=O)CNC(=O)[C@@H](NC(=O)CNC(=O)[C@H](CC(N)=O)NC(=O)[C@@H](NC(=O)CNC(=O)[C@H](Cc1ccc(O)cc1)NC(=O)[C@H](CCCNC(=N)N)NC(=O)[C@H](CCSC)NC(=O)[C@@H](NC(=O)[C@H](CCSC)NC(=O)[C@H](C)NC(=O)[C@H](CC(C)C)NC(=O)[C@H](CCC(N)=O)NC(=O)[C@H](CCCCN)NC(=O)[C@H](CCCCN)NC(=O)[C@@H](NC(=O)[C@@H](N)CCCNC(=N)N)[C@@H](C)O)C(C)C)C(C)C)C(C)C)[C@@H](C)CC)[C@@H](C)CC)C(=O)N[C@H](C(=O)N[C@@H](CO)C(=O)N[C@@H](CCCCN)C(=O)N[C@@H](CCCCN)C(=O)N[C@@H](CC(N)=O)C(=O)N[C@@H](CCCCN)C(=O)N[C@@H](CC(=O)O)C(=O)N[C@H](C(=O)N[C@H](C(=O)N[C@H](C(=O)N[C@H](C(=O)N[C@@H](C)C(=O)N[C@@H](CC(N)=O)C(=O)N[C@@H](C)C(=O)N[C@H](C(=O)N[C@@H](Cc1ccccc1)C(=O)N[C@H](C(=O)N[C@@H](CCCCN)C(=O)O)C(C)C)C(C)C)C(C)C)[C@@H](C)O)C(C)C)[C@@H](C)CC)C(C)C — CC50 (THP-1, PMA-differentiated; cell viability, MTT): 56.5 µM

A few entries again:
COc1cc2c(Oc3ccc4[nH]c(C)cc4c3F)ccnc2cc1OCC1(N)CC1 — grade 3 T-wave abnormality (paediatric refractory sarcoma patients; 12 mg): 0%
Cc1ccc(-c2nn3c(Cn4c(-c5ccccn5)nc5ccccc54)nnc3s2)cc1C — CC50 (HEp-2; cytotoxicity): > 100 µM
Nc1ncnc2c1ccn2[C@H]1[C@H](O)[C@H](O)[C@]2(CO)C[C@H]12 — CC50 (monkey cell line; visual): > 100 µM
